{"data": "Experimental data of several laboratories", "organism": "Klebsiella pneumoniae"}
{"Structure (SMILES)": "CC[C@H](C)CCCCC(=O)N[C@@H](CCN)C(=O)N[C@H](C(=O)N[C@@H](CCN)C(=O)N[C@H]1CCNC(=O)[C@H]([C@@H](C)O)NC(=O)[C@H](CCN)NC(=O)[C@H](CCN)NC(=O)[C@H](CC(C)C)NC(=O)[C@@H](Cc2ccccc2)NC(=O)[C@H](CCN)NC1=O)[C@@H](C)O", "test system": "NR-41920", "setting": "2× and 5× MIC", "measurement": "time to kill", "value": "≤ 2 h"}
{"Structure (SMILES)": "CCCC(=O)NCC(=O)N[C@@H](CC(C)C)C(=O)N[C@@H](CC(C)C)C(=O)N[C@@H](CCCCN)C(=O)N[C@@H](CCCNC(=N)N)C(=O)N[C@H](C(=O)N[C@@H](CCCCN)C(=O)N[C@H](C(=O)N[C@@H](CC(C)C)C(=O)N[C@@H](CC(C)C)C(=O)NCCCC[C@H](NC(=O)[C@H](CC(C)C)NC(=O)[C@H](CC(C)C)NC(=O)[C@@H](NC(=O)[C@H](CCCCN)NC(=O)[C@@H](NC(=O)[C@H](CCCNC(=N)N)NC(=O)[C@H](CCCCN)NC(=O)[C@H](CC(C)C)NC(=O)[C@H](CC(C)C)NC(=O)CNC(=O)CCC)[C@@H](C)CC)[C@@H](C)O)C(N)=O)[C@@H](C)O)[C@@H](C)CC", "assay": "checkerboard", "test system": "ATCC 700603", "setting": "with: rifampicin", "measurement": "FIC index", "value": 0.375}
{"Structure (SMILES)": "COc1ccc2ccc3c(c2c1)C=[N+]1C2CCCCC2[N+]2=Cc4cccc(C)c4[O][Au-]21[O]3.F[P-](F)(F)(F)(F)F (stereo not shown)", "assay": "bacterial growth, broth microdilution", "test system": "carbapenem-resistant clinical isolate", "setting": "24 h", "measurement": "MIC", "value": "20 µM"}
{"Structure (SMILES)": "CCCC(=O)NCC(=O)N[C@@H](CC(C)C)C(=O)N[C@@H](CC(C)C)C(=O)N[C@@H](CCCCN)C(=O)N[C@@H](CCCNC(=N)N)C(=O)N[C@H](C(=O)N[C@@H](CCCCN)C(=O)N[C@H](C(=O)N[C@@H](CC(C)C)C(=O)N[C@@H](CC(C)C)C(=O)NCCCC[C@H](NC(=O)[C@H](CC(C)C)NC(=O)[C@H](CC(C)C)NC(=O)[C@@H](NC(=O)[C@H](CCCCN)NC(=O)[C@@H](NC(=O)[C@H](CCCNC(=N)N)NC(=O)[C@H](CCCCN)NC(=O)[C@H](CC(C)C)NC(=O)[C@H](CC(C)C)NC(=O)CNC(=O)CCC)[C@@H](C)CC)[C@@H](C)O)C(=O)NCCCC[C@H](NC(=O)[C@H](CCCCNC(=O)[C@H](CC(C)C)NC(=O)[C@H](CC(C)C)NC(=O)[C@@H](NC(=O)[C@H](CCCCN)NC(=O)[C@@H](NC(=O)[C@H](CCCNC(=N)N)NC(=O)[C@H](CCCCN)NC(=O)[C@H](CC(C)C)NC(=O)[C@H](CC(C)C)NC(=O)CNC(=O)CCC)[C@@H](C)CC)[C@@H](C)O)NC(=O)[C@H](CC(C)C)NC(=O)[C@H](CC(C)C)NC(=O)[C@@H](NC(=O)[C@H](CCCCN)NC(=O)[C@@H](NC(=O)[C@H](CCCNC(=N)N)NC(=O)[C@H](CCCCN)NC(=O)[C@H](CC(C)C)NC(=O)[C@H](CC(C)C)NC(=O)CNC(=O)CCC)[C@@H](C)CC)[C@@H](C)O)C(N)=O)[C@@H](C)O)[C@@H](C)CC", "assay": "checkerboard", "test system": "ATCC 700603", "setting": "with: rifampicin", "measurement": "FIC index", "value": 0.25}
{"Structure (SMILES)": "C[C@H]1COc2c(N3CCN(C)CC3)c(F)cc3c(=O)c(C(=O)N[C@@H](CCCNC(=N)N)C(=O)N[C@@H](Cc4ccc(-c5ccccc5)cc4)C(=O)N[C@@H](CCCNC(=N)N)C(=O)N[C@@H](Cc4ccc(-c5ccccc5)cc4)C(=O)N[C@@H](CCCNC(=N)N)C(N)=O)cn1c23", "test system": "ATCC 2814", "scale": "reference: IC50 MDCK cells over MIC", "measurement": "selectivity index", "value": 4.4}
{"Structure (SMILES)": "COc1ccc2ccc3c(c2c1)C=[N+]1C2CCCCC2[N+]2=Cc4cc(C(C)(C)C)cc(C(C)(C)C)c4[O][Au-]21[O]3.F[P-](F)(F)(F)(F)F (stereo not shown)", "assay": "bacterial growth, broth microdilution", "test system": "carbapenem-resistant", "setting": "24 h", "measurement": "MIC", "value": "> 20 µM"}
{"Structure (SMILES)": "Oc1ccc(Cl)cc1-c1nc2c(C(F)(F)F)cc(C(F)(F)F)cc2[nH]1", "assay": "colistin potentiator", "test system": "B9", "setting": "5 µM", "measurement": "MIC of colistin", "value": "0.25 µg/mL"}
{"Structure (SMILES)": "COc1ccc2c(c1)[O][Au-]13[O]c4ccc5ccc(OC)cc5c4C=[N+]1C1CCCCC1[N+]3=C2.F[P-](F)(F)(F)(F)F (stereo not shown)", "assay": "bacterial growth, broth microdilution", "test system": "carbapenem-resistant clinical isolate", "setting": "24 h", "measurement": "MIC", "value": "> 20 µM"}
{"Structure (SMILES)": "CCCCCC(=O)NCC(=O)N[C@@H](CC(C)C)C(=O)N[C@@H](CC(C)C)C(=O)N[C@@H](CCCCN)C(=O)N[C@@H](CCCNC(=N)N)C(=O)N[C@H](C(=O)N[C@@H](CCCCN)C(=O)N[C@H](C(=O)N[C@@H](CC(C)C)C(=O)N[C@@H](CC(C)C)C(=O)NCCCC[C@H](NC(=O)[C@H](CCCCNC(=O)[C@H](CC(C)C)NC(=O)[C@H](CC(C)C)NC(=O)[C@@H](NC(=O)[C@H](CCCCN)NC(=O)[C@@H](NC(=O)[C@H](CCCNC(=N)N)NC(=O)[C@H](CCCCN)NC(=O)[C@H](CC(C)C)NC(=O)[C@H](CC(C)C)NC(=O)CNC(=O)CCCCC)[C@@H](C)CC)[C@@H](C)O)NC(=O)[C@H](CC(C)C)NC(=O)[C@H](CC(C)C)NC(=O)[C@@H](NC(=O)[C@H](CCCCN)NC(=O)[C@@H](NC(=O)[C@H](CCCNC(=N)N)NC(=O)[C@H](CCCCN)NC(=O)[C@H](CC(C)C)NC(=O)[C@H](CC(C)C)NC(=O)CNC(=O)CCCCC)[C@@H](C)CC)[C@@H](C)O)C(N)=O)[C@@H](C)O)[C@@H](C)CC", "assay": "checkerboard", "test system": "ATCC 700603", "setting": "with: rifampicin", "measurement": "FIC index", "value": 0.125}
{"Structure (SMILES)": "C[C@@](O)(C(F)F)[C@H](NC(=O)c1ccc(C#CC#CC2CC2)cc1)C(=O)NO", "test system": "10031", "measurement": "MIC after serial passage", "value": "1 to 2 µg/mL"}
